{"data": "Measurements pooled from the literature", "AXL": "Tyrosine-protein kinase receptor UFO (AXL, Homo sapiens, UniProt P30530)", "MAP2K2": "Dual specificity mitogen-activated protein kinase kinase 2 (MAP2K2, Homo sapiens, UniProt P36507)", "IDE": "Insulin-degrading enzyme (IDE, Homo sapiens, UniProt P14735)", "RET": "Proto-oncogene tyrosine-protein kinase receptor Ret (RET, Homo sapiens, UniProt P07949)", "note": "± gives the spread as reported.", "chain of UniProt P07949 (whole entry, looked up)": "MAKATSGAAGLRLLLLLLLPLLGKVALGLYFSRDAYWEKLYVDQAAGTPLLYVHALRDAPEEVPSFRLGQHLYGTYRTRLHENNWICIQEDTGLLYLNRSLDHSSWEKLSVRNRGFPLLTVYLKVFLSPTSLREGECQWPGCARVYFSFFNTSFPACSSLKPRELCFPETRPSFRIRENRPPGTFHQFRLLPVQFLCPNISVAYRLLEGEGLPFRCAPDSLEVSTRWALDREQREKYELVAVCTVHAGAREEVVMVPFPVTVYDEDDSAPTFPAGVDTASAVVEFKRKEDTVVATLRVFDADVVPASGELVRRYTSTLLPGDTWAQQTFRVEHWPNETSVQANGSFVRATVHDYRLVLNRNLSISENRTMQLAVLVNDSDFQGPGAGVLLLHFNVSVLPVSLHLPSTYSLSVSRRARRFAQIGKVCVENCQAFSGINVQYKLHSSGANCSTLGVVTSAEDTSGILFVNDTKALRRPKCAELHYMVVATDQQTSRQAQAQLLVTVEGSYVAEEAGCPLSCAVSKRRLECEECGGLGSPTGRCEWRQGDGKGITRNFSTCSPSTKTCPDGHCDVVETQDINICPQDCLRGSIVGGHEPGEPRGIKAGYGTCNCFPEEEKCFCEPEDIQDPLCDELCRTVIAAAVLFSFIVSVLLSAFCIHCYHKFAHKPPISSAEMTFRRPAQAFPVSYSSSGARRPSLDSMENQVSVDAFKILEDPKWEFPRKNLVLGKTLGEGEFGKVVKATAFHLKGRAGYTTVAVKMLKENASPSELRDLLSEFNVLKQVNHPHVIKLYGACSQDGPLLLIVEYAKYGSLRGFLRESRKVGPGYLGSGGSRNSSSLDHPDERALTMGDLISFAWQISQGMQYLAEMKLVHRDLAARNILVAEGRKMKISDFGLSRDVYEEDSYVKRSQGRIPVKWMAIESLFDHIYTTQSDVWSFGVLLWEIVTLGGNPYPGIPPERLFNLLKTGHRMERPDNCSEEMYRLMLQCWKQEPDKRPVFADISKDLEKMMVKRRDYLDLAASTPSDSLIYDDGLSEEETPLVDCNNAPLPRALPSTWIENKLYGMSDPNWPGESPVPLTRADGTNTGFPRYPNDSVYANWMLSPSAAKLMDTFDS", "chain of UniProt P28074 (whole entry, looked up)": "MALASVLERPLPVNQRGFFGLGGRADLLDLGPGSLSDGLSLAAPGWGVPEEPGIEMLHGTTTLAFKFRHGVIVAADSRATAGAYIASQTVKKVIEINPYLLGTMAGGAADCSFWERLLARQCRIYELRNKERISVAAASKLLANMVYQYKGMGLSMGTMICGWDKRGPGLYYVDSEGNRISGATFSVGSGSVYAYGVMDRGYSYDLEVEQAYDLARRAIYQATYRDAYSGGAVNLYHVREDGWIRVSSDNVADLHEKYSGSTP", "chain of UniProt P30530 (whole entry, looked up)": "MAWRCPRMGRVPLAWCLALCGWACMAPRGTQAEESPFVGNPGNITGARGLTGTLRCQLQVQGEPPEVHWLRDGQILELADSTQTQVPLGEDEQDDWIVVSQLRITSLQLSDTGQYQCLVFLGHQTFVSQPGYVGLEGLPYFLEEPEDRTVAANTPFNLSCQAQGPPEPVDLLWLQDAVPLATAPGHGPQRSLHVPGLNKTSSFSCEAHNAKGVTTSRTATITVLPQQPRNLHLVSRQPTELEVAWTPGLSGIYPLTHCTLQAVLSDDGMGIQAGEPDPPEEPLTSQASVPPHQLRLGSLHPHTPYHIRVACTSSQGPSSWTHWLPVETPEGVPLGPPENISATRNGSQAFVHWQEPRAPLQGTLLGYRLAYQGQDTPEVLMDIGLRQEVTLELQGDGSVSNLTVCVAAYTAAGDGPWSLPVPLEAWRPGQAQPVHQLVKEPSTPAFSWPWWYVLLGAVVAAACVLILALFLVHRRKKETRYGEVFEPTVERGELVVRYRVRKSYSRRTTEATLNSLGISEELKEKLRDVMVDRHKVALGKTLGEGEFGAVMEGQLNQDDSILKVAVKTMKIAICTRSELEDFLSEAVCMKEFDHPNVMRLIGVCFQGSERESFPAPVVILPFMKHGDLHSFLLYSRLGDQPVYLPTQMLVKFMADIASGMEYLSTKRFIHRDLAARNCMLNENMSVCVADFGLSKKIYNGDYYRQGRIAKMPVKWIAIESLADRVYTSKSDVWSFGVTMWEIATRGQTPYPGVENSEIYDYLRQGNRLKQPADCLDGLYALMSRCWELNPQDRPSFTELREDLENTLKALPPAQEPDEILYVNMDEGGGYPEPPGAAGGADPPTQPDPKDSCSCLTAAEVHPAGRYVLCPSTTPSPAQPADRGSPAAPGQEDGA", "chain of UniProt Q64663 (whole entry, unmodified, looked up)": "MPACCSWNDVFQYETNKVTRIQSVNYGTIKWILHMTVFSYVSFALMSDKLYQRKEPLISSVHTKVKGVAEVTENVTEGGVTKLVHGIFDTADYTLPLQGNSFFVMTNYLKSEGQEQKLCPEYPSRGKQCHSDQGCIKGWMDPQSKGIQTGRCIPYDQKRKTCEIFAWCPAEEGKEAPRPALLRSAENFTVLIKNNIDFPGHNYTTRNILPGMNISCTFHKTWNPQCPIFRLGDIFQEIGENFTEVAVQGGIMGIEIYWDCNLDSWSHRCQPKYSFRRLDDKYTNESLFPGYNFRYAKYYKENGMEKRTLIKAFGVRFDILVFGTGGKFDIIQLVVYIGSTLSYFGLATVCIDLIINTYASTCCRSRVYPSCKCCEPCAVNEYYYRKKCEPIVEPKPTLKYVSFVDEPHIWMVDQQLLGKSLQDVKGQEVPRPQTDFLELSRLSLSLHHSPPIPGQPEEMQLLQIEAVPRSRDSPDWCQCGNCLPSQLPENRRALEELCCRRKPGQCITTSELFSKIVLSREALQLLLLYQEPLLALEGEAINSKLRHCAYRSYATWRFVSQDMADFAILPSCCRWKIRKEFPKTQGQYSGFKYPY", "chain of UniProt P20618 (whole entry, looked up)": "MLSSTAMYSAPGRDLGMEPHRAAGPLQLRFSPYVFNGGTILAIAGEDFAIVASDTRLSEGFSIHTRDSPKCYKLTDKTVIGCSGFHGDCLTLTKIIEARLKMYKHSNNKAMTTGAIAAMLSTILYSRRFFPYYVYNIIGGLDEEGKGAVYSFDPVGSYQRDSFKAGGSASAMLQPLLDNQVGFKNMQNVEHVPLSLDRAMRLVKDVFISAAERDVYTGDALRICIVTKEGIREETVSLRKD", "chain of UniProt Q695T7 (whole entry, looked up)": "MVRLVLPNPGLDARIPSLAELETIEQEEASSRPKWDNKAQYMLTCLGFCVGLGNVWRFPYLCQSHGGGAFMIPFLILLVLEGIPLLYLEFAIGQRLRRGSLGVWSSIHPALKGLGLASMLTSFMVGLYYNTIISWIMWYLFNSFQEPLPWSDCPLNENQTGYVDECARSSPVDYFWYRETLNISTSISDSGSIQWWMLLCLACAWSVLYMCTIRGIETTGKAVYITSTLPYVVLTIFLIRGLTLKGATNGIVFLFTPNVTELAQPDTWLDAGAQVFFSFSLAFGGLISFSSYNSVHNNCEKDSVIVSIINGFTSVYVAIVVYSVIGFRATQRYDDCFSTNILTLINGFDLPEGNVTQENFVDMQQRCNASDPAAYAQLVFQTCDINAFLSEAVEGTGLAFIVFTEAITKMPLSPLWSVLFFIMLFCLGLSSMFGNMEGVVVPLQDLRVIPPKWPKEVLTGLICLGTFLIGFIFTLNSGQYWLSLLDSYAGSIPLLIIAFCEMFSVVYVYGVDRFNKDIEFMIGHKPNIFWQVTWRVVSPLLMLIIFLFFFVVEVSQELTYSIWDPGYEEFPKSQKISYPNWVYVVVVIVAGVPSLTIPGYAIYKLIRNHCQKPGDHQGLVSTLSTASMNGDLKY", "chain of UniProt P48067 (whole entry, unmodified, looked up)": "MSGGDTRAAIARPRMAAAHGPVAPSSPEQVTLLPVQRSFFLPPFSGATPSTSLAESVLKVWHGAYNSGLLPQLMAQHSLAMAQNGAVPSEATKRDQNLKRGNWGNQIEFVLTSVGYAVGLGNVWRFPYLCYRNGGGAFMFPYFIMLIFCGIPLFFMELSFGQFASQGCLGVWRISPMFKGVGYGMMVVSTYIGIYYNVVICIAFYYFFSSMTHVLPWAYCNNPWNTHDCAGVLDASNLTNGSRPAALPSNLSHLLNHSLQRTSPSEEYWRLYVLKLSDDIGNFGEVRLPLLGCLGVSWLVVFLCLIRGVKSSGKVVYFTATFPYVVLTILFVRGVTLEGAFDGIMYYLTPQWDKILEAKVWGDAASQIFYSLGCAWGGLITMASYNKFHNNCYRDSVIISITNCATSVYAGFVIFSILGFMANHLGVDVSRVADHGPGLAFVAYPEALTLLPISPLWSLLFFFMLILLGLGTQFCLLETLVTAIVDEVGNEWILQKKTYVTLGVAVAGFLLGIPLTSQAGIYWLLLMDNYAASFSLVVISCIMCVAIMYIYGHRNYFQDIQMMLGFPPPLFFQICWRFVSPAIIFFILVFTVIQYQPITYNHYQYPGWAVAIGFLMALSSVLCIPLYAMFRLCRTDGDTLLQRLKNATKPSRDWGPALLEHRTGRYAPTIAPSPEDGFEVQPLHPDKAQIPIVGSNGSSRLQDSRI", "chain of UniProt P48730 (whole entry, looked up)": "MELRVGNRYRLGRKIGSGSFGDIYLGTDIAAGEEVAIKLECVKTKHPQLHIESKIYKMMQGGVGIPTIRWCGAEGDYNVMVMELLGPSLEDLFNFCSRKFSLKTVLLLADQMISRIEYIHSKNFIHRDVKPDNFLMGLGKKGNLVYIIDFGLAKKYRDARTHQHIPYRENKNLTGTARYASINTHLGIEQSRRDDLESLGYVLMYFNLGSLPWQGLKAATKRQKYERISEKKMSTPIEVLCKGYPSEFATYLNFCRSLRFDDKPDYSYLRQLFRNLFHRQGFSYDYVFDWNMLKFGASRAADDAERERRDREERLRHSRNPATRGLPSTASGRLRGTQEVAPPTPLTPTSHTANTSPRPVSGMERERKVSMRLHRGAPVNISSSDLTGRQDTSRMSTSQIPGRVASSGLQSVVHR"}
{"SMILES": "COc1cc(F)ccc1-c1ncnc(Nc2cccc(C[S@](C)(=N)=O)c2)n1", "tested on": "AXL", "assay": "kinase activity", "setting": "10 µM, added: 10 µM ATP", "measurement": "remaining activity", "value": "78%"}
{"SMILES": "CC(C)C[C@H](NC(=O)[C@H](Cc1ccccc1)NC(=O)c1cnccn1)B(O)O", "tested on": "Proteasome component C5/PSMB5 (Homo sapiens, UniProt P20618+P28074)", "assay": "enzyme activity, inhibitor", "setting": "1 µM, PA28αβ-activated, HEPES buffer, added: Ac-WLA-AMC substrate", "measurement": "remaining activity", "value": "0%"}
{"SMILES": "COc1cc(/C=C/C(=O)CC(=O)/C=C/c2ccc(O)c(OC)c2)ccc1O", "tested on": "phosphorylase kinase", "setting": "1 µM", "scale": "baseline: DMSO", "measurement": "remaining activity", "value": "10%"}
{"SMILES": "C=CC(=O)N1CCC[C@@H](n2nc(-c3ccc(Oc4ccccc4)cc3)c3c(N)ncnc32)C1", "tested on": "MAP2K2", "assay": "kinase activity, inhibitor, HotSpot radiometric", "setting": "100 nM, added: ATP 10 µM", "measurement": "remaining activity", "value": "91 ± 0.4%"}
{"SMILES": "O=C(O)CC[C@H](NC(=O)N[C@@H](CCCCNC(=O)[C@H](Cc1ccc2ccccc2c1)NC(=O)CCCCCNC(=O)CN1CCN(CC(=O)O)CCN(CC(=O)O)CCN(CC(=O)O)CC1)C(=O)O)C(=O)O [gallium-68 labelled]", "assay": "PET/CT SUVmean", "test system": "mice with 22Rv1 xenograft", "setting": "intravenous, 3.7 MBq, 4 h", "measurement": "tumour to non-tumour ratio", "value": "4.61 ± 0.55"}
{"SMILES": "COc1cc(N2CCN(C)CC2)ccc1Nc1nc(N)n(C(=S)NCc2c(Cl)cccc2Cl)n1", "tested on": "PI4KB (Homo sapiens, UniProt Q9UBF8)", "assay": "enzyme activity", "setting": "10 µM", "scale": "baseline: control", "measurement": "remaining activity", "value": "12%"}
{"SMILES": "O=C1NC(=O)/C(=C/c2ccc(-c3ccc(F)cc3O)o2)S1", "tested on": "MAP3K1 (Homo sapiens, UniProt Q13233)", "assay": "enzyme activity", "setting": "10 µM", "measurement": "remaining activity", "value": "56%"}
{"SMILES": "O.[Fe+2].c1ccc(CN(CCN(Cc2ccccn2)Cc2ccccn2)Cc2ccccn2)cc1", "tested on": "PSMB5 (Homo sapiens, UniProt P28074)", "assay": "20S proteasome activity, inhibitor", "setting": "10 µM, 165 min, room temperature, aerobic without DTT", "measurement": "remaining activity", "value": "~10%"}
{"SMILES": "COc1ccc2cc3[n+](cc2c1OC)CCc1cc2c(cc1-3)OCO2", "tested on": "P2X purinoceptor 7 (P2rx7, Rattus norvegicus, UniProt Q64663)", "assay": "ATP-evoked current, inhibitor, whole-cell patch clamp", "test system": "HEK293 transfected", "setting": "300 µM", "measurement": "remaining activity", "value": "73.1%"}
{"SMILES": "O=C(CC1CC1)N1CC(=O)N2[C@H](C1)[C@H](c1ccc(C#Cc3ccccc3)cc1)[C@@H]2CO", "tested on": "IDE", "assay": "enzyme activity, inhibitor, fluorogenic kinetic", "setting": "added: Mca-RPPGFSAFK(Dnp)-OH substrate", "measurement": "EC50", "value": "7.1 µM"}
{"SMILES": "Cc1cc(Nc2cc(N3CCN(C)CC3)nc(Sc3ccc(NC(=O)C4CC4)cc3)n2)[nH]n1", "tested on": "RET", "assay": "kinase activity, KinaseProfiler", "setting": "0.03 µM, species human", "scale": "baseline: control", "measurement": "remaining activity", "value": "58%"}
{"SMILES": "Nc1ncc2c(n1)-c1c([nH]c3ccc(-c4ccc(F)cc4)cc13)CCC2", "tested on": "TAOK3 (Homo sapiens, UniProt Q9H2K8)", "assay": "kinase activity, inhibitor, radiometric", "setting": "1 µM, added: ATP at Km", "measurement": "remaining activity", "value": "88%"}
{"SMILES": "c1cnc2ccc(Nc3nc(NC4CC4)c4nc[nH]c4n3)cc2c1", "tested on": "AXL", "assay": "kinase activity, inhibitor, SelectScreen kinase profiling", "setting": "1 µM", "scale": "baseline: control", "measurement": "remaining activity", "value": "79%"}
{"SMILES": "CC#CC(=O)N1CCC[C@H]1c1nc(-c2ccc(C(=O)Nc3ccccn3)cc2)c2c(N)nccn12", "tested on": "TXK (Homo sapiens, UniProt P42681)", "assay": "kinase activity, inhibitor, HotSpot radiometric", "setting": "100 nM, added: ATP 10 µM", "measurement": "remaining activity", "value": "86.8 ± 2%"}
{"SMILES": "O=C(O)c1ccc(Nc2ncc3c(n2)-c2ccc(Cl)cc2C(c2c(F)cccc2F)=NC3)cc1", "tested on": "human IRR(h)", "assay": "kinase activity", "setting": "1 µM", "measurement": "remaining activity", "value": "95%"}
{"SMILES": "COc1cc(-c2cncc3c2CN(C)Cc2cc(N4CCNCC4)ccc2-3)cc(OC)c1OC", "tested on": "PRKDC (Homo sapiens, UniProt P78527)", "assay": "kinase activity", "setting": "1 µM, human enzyme, added: ATP 10 µM", "scale": "baseline: DMSO control", "measurement": "remaining activity", "value": "106%"}
{"SMILES": "COc1cc(Nc2ncc3c(n2)-c2ccc(Cl)cc2C(c2c(F)cccc2OC)=NC3)ccc1C(=O)O", "tested on": "EPHA5", "assay": "kinase activity", "setting": "1 µM", "measurement": "remaining activity", "value": "26%"}
{"SMILES": "CCNC(=O)/C=C/c1cccc(Br)c1", "tested on": "SLC6A19 (Homo sapiens, UniProt Q695T7)", "assay": "membrane potential transport, inhibitor, FLIPR membrane potential", "test system": "CHO-BC cells", "setting": "100 µM, unit not given", "scale": "baseline: control", "measurement": "remaining activity", "value": 0.454}
{"SMILES": "O=C(NC1CCC1)c1ccc2nc(-c3cccc(NS(=O)(=O)NCCN4CCCCC4)c3)cn2c1", "tested on": "CHEK2 (Homo sapiens, UniProt O96017)", "assay": "enzyme activity", "setting": "10 µM", "measurement": "remaining activity", "value": "94%"}
{"SMILES": "NC/C(=C\\F)COc1cccc(Cn2c(=S)[nH]c(=O)c3[nH]cnc32)c1", "tested on": "Myeloperoxidase (MPO, Homo sapiens, UniProt P05164)", "assay": "LDL lipid peroxidation, inhibitor, cholesteryl ester hydroperoxide", "setting": "0.0021 µM", "measurement": "remaining activity", "value": "91%"}
{"SMILES": "C[C@@H](Oc1ccc(S(C)(=O)=O)cc1C(=O)N1C[C@@H]2C[C@]2(c2cc(C(F)(F)F)on2)C1)C(F)(F)F", "tested on": "SLC6A9 (Homo sapiens, UniProt P48067, G373S)", "assay": "glycine uptake, inhibitor, [3H]glycine uptake", "setting": "0.004 µM, G319S mutant, log concentration 4, added: [3H]glycine", "scale": "baseline: no inhibitor", "measurement": "remaining activity", "value": "88.8%"}
{"SMILES": "COc1ccc(F)cc1C(=O)NCc1ccc(-c2nn([C@@H](C)C(F)(F)F)c(N)c2C(N)=O)cc1", "tested on": "RET", "assay": "kinase activity, inhibitor, HotSpot radiometric", "setting": "100 nM, added: ATP 10 µM", "measurement": "remaining activity", "value": "90.4 ± 0.6%"}
{"SMILES": "C=CC(=O)N1CCC[C@@H](n2nc(-c3ccc(Oc4ccccc4)cc3)c3c(N)ncnc32)C1", "tested on": "RET", "setting": "1 µM", "measurement": "remaining activity", "value": "121%"}
{"SMILES": "C[C@H]1[C@H](OC(=O)CCC(=O)O)O[C@@H]2O[C@@]3(C)CC[C@H]4[C@H](C)CC[C@@H]1[C@@]24OO3", "tested on": "Non-structural polyprotein pORF1, helicase domain (Hepatitis E virus genotype 1, UniProt P33424)", "assay": "ATPase activity, inhibitor, colorimetric", "setting": "19.5 µM, preincubation 30 min, added: ATP 500 µM", "scale": "baseline: untreated", "measurement": "remaining activity", "value": "58.3%"}
{"SMILES": "Cc1[nH]c2ccccc2c1CCNCc1ccc(/C=C/C(=O)NO)cc1", "tested on": "HBL-1", "setting": "1 µM, 120 h", "measurement": "viability", "value": "0.14%"}
{"SMILES": "Oc1cccc(-c2nc(N3CCOCC3)c3oc4ncccc4c3n2)c1", "tested on": "CSNK1D (Homo sapiens, UniProt P48730)", "assay": "enzyme activity", "setting": "10 µM", "measurement": "remaining activity", "value": "100%"}
{"SMILES": "COC(=O)c1ccc(S(=O)(=O)N2CCCCN3[C@H](CO)[C@@H](c4ccc(-c5cccc(C)c5C)cc4)[C@@H]3C2)n1C", "tested on": "IDE", "assay": "enzyme activity, inhibitor, fluorescence kinetic", "setting": "added: Mca-RPPGFSAFK(Dnp)-OH substrate", "measurement": "EC50", "value": "> 5 µM"}
{"SMILES": "COc1cc([C@@H]2c3cc4c(cc3[C@@H](O[C@@H]3O[C@@H]5CO[C@@H](C)O[C@H]5[C@H](O)[C@H]3O)[C@H]3COC(=O)[C@H]23)OCO4)cc(OC)c1O", "tested on": "HBL-1", "setting": "1 µM, 120 h", "measurement": "viability", "value": "10.4%"}
{"SMILES": "CNc1ncc2c(/C=C/C(=O)N3CCC(OC)CC3)nn(Cc3cccc(C(F)(F)F)c3)c2n1", "tested on": "DSTYK (Homo sapiens, UniProt Q6XUX3)", "assay": "kinase activity, inhibitor", "setting": "1 µM", "scale": "baseline: untreated control", "measurement": "remaining activity", "value": "99%"}
{"SMILES": "C=CC(=O)N1CCC([C@@H]2CCNc3c(C(N)=O)c(-c4ccc(Oc5ccccc5)cc4)nn32)CC1", "tested on": "MAP2K2", "assay": "kinase activity, inhibitor, HotSpot radiometric", "setting": "100 nM, added: ATP 10 µM", "measurement": "remaining activity", "value": "55.1 ± 0.4%"}
